Results of several laboratories.
Compare with care: the assays were run in different laboratories. “And” joins repeats or separate records; there may be more than shown. ± gives the spread as reported.
SMARCA2 isoform B: SWI/SNF-related matrix-associated actin-dependent regulator of chromatin subfamily A member 2, isoform B (SMARCA2, Homo sapiens, UniProt P51531)
Sequence of UniProt P51531 (whole entry, looked up): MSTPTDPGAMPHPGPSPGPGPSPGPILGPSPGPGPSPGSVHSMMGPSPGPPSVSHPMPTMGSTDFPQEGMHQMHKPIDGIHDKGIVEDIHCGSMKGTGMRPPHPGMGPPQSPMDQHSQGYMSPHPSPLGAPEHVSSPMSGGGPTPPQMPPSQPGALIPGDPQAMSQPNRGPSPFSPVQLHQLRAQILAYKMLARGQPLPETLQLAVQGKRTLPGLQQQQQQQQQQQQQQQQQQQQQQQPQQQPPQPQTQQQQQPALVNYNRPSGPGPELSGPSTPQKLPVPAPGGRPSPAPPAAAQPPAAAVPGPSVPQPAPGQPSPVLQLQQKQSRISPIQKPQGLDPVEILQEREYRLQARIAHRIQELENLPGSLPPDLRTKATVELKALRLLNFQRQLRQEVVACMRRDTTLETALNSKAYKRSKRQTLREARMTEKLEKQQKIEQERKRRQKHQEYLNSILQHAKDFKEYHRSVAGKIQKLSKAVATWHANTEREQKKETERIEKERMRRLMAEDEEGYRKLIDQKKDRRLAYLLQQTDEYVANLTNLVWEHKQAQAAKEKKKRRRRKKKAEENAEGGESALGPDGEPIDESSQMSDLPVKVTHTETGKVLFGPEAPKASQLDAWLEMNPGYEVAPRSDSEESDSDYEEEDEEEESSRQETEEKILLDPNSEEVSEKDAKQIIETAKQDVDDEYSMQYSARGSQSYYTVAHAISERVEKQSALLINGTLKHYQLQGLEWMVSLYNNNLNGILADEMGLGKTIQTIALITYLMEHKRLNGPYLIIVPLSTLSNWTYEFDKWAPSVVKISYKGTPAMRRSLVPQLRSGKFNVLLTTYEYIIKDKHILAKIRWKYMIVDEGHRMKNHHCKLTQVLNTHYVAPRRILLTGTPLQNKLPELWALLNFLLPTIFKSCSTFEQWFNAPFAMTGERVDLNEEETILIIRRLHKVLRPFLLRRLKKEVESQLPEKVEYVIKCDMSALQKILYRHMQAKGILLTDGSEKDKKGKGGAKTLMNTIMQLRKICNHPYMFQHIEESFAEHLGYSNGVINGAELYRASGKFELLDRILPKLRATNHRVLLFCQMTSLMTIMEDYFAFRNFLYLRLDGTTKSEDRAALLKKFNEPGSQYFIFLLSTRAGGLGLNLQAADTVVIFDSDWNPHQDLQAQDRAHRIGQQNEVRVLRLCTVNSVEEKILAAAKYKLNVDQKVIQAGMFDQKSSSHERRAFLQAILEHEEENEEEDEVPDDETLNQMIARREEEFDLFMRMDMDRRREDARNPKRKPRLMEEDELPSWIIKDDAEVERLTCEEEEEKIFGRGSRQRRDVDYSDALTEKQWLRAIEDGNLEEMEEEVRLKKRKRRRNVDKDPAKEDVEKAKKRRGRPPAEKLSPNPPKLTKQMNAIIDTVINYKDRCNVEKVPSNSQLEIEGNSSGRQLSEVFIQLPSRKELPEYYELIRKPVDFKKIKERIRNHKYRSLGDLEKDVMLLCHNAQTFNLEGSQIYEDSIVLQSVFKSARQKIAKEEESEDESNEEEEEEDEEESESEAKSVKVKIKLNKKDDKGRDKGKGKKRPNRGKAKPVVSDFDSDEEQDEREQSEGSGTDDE
STK16: Serine/threonine-protein kinase 16 (STK16, Homo sapiens, UniProt O75716)
Sequence of UniProt O75716 (whole entry, looked up): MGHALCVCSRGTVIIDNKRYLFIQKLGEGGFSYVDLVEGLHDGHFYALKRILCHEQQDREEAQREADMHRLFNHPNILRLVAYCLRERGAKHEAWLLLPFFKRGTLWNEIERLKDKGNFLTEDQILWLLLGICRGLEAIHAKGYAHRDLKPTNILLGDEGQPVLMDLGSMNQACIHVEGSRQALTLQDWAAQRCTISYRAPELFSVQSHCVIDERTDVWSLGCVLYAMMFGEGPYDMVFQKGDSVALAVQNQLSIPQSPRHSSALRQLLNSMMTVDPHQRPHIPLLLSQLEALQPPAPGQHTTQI
rep main protease: Replicase polyprotein 1ab, main protease (rep, Porcine epidemic diarrhea virus, UniProt P0C6Y4)
LRRC8C E6A part LRRC8A IL1 chimera: Volume-regulated anion channel subunit LRRC8C, part LRRC8A IL1 chimera (LRRC8C, Homo sapiens, UniProt Q8TDW0, E6A)
ADRA1D: Alpha-1D adrenergic receptor (ADRA1D, Homo sapiens, UniProt P25100)
Sequence of UniProt P25100 (whole entry, looked up): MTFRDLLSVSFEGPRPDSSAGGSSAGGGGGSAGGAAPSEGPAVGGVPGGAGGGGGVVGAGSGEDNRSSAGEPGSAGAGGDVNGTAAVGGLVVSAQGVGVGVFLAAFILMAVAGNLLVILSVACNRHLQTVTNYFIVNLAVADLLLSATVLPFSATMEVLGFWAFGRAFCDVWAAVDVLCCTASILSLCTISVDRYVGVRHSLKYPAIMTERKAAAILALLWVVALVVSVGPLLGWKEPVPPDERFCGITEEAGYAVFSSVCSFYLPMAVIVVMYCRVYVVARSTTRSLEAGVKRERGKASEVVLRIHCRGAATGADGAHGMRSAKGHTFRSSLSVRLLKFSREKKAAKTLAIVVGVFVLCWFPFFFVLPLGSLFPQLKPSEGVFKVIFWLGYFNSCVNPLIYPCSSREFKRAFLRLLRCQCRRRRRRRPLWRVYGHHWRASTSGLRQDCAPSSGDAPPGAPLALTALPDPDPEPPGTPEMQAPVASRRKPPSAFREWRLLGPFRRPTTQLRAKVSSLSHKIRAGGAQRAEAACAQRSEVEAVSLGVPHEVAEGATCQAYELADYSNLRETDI
Sequence of UniProt P50613 (whole entry, looked up): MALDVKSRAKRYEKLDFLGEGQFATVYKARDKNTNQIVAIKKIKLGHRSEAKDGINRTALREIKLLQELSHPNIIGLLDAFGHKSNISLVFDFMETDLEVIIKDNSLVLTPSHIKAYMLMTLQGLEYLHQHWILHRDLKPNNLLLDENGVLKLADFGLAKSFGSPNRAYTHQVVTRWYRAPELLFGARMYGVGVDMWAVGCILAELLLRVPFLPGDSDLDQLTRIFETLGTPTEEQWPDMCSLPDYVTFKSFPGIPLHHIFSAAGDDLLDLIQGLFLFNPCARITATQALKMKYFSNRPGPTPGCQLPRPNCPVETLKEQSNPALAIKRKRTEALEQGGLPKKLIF
Sequence of UniProt P18089 (whole entry, looked up): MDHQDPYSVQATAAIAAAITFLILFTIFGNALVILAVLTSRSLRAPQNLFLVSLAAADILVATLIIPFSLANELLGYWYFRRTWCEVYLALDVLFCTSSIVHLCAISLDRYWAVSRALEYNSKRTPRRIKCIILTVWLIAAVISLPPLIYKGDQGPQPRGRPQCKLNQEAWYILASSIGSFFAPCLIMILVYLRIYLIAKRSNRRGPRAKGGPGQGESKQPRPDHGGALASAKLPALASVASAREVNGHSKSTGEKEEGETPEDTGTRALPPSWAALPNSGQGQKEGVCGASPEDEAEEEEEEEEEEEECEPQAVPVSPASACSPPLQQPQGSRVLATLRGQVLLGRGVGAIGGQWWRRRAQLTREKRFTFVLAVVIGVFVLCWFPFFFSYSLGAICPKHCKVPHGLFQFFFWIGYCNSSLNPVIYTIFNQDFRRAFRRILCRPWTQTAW
Sequence of UniProt Q8TD19 (whole entry, looked up): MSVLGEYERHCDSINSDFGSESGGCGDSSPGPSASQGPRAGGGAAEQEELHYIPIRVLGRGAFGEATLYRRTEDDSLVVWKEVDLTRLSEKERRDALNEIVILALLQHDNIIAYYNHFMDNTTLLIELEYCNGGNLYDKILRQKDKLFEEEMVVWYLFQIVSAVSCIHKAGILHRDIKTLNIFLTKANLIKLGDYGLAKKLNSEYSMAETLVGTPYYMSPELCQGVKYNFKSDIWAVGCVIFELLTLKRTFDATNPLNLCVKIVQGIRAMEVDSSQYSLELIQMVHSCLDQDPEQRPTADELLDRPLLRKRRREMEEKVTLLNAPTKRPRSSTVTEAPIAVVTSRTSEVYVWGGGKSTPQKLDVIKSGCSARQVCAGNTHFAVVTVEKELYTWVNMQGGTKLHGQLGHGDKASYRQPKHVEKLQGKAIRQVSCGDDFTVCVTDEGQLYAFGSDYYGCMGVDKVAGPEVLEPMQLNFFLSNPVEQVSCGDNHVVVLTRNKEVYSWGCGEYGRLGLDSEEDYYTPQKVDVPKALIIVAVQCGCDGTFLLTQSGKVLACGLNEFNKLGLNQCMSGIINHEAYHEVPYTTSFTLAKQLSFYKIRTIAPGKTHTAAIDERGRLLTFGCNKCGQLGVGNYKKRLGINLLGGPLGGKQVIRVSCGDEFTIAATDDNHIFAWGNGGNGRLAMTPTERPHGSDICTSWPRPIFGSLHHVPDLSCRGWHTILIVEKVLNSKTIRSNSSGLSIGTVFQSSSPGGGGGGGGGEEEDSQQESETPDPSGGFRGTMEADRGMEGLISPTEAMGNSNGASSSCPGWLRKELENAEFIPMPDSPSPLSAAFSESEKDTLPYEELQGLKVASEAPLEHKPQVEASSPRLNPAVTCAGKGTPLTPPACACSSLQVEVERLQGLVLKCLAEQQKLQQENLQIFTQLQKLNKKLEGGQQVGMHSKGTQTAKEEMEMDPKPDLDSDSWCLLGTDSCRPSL

| SMILES | target | assay | system | setting | inhibition |
| --- | --- | --- | --- | --- | --- |
| COc1cc(-c2cc(C(C)=O)n3ccccc23)c(OC)cc1Cn1ccnc1 | SMARCA2 isoform B |  |  | 1 µM | -0.89% |
| Cn1cc(-c2cnc3ccc(NC(=O)Nc4ccc(F)c(Br)c4)cc3n2)cn1 | Mitogen-activated protein kinase kinase kinase 5 (MAP3K5, Homo sapiens, UniProt Q99683) | kinase binding, KiNativ profiling, item: Lys2 peptide | PANC-1 lysate | 5 µM | 2.3% |
| CC[C@@H]1[C@H](F)C(=O)N[C@@H]1COc1nccc2cc(C(N)=O)c(OC)cc12 | Cyclin-dependent kinase 7 (CDK7, Homo sapiens, UniProt P50613) | ATP-site probe binding, ActivX profiling | THP-1 cell lysate | 0.01 mM, Lys1 site | -17% |
| Cc1cc(-c2ccnc3[nH]cc(F)c23)cc(F)c1[C@@]1(O)[C@H](C)CN(C2CCS(=O)(=O)CC2)C[C@@H]1C | STK16 | ATP probe binding, KiNativ, item: Lys2 site | HEK293T cell lysate | 10 µM | 72.6% |
| Cc1ccc(C(=O)Nc2ccc(S(=O)(=O)O)c3cc(S(=O)(=O)O)cc(S(=O)(=O)O)c23)cc1NC(=O)c1cccc(NC(=O)Nc2cccc(C(=O)Nc3cc(C(=O)Nc4ccc(S(=O)(=O)O)c5cc(S(=O)(=O)O)cc(S(=O)(=O)O)c45)ccc3C)c2)c1 | Cullin-1, C-terminal domain with ROC1 (Homo sapiens, UniProt Q13616) | FRET |  | 5 µM | 100% |
| COc1cc(CNC(=O)c2cccc3ccccc23)cc(Br)c1OC | rep main protease | enzyme activity, inhibitor, FRET |  | 10 µM | < 0% |
| CC(C)(O)c1cn(-c2ccc(-c3cccc(S(C)(=O)=O)c3)cc2)c(C(C)(C)c2ccccc2Cl)n1 | Oxysterols receptor LXR-alpha (NR1H3, Homo sapiens, UniProt Q13133) | reporter gene, antagonist | CV-1 | concentration not given, with: pan agonist A 60 nM | 62% |
| Cl.Cl.c1cc2cc(C3=NCCN3)ccc2cc1C1=NCCN1 | Rac GTPase-activating protein 1 (Homo sapiens, UniProt Q9H0H5) | GAP activity, malachite green phosphate |  | concentration not given, orthogonal retest | 68.2% |
| [2H]c1cc(C)c(NC(=O)c2cnc(Nc3cc(N4CCCCC4)nc(C)n3)s2)c(Cl)c1 | Serine/threonine-protein kinase B-raf (BRAF, Homo sapiens, UniProt P15056, V600E) |  |  | 0.01 µM | < 30% |
| COc1cc(CNC(=O)c2cccc(C#N)c2)cc(Br)c1OC | rep main protease | enzyme activity, inhibitor, FRET |  | 10 µM | < 0% |
| Cc1cc2c(cc1N1C(=O)c3cccc4c(CCCO)ccc(c34)C1=O)n(C)c(=O)n2C (racemic) | Bromodomain and WD repeat-containing protein 1, bromodomain 2 (BRWD1, Homo sapiens, UniProt Q9NSI6) | binding, BROMOscan binding |  | 100 nM | 61% |
| CN(C)C1CCN(CC#Cc2nn(C3CCCC3)c3nc(NCc4ccccc4)ncc23)C1 (stereo not shown) | Cyclin-dependent kinase 7, with cyclin H, MAT1 (CDK7, Homo sapiens, UniProt P50613) | enzyme activity, inhibitor, Z'-LYTE |  | 100 nM | -6% |
| Cc1nn(-c2nc3c(F)cc(F)cc3s2)c(O)c1C(c1ccccc1C(=O)O)c1c(C)nn(-c2nc3c(F)cc(F)cc3s2)c1O | Cyclic GMP-AMP synthase (CGAS, Homo sapiens, UniProt Q8N884) | enzyme activity, inhibitor, pyrophosphatase-coupled |  | 200 µM, 1.5 h, with: HT-DNA | 95.7% |
| COc1ccc(F)cc1C(=O)NCc1ccc(-c2nn([C@@H](C)C(F)(F)F)c(N)c2C(N)=O)cc1 | Serine/threonine-protein kinase ULK3 (ULK3, Homo sapiens, UniProt Q6PHR2) | probe binding, competitive chemoproteomics | human PBMCs | 0.1 µM | 25.6% |
| O=C(NO)c1ccc(CN2CCCCc3ccccc32)c(F)c1 | Muscarinic acetylcholine receptor M4 (CHRM4, Homo sapiens, UniProt P08173) | radioligand binding, radioligand displacement |  | 10 µM | 16.1% |
| CN1CCN(c2cc(-c3ccncc3)c(-c3ccc4ccccc4c3)nn2)CC1 | Somatostatin receptor type 5 (SSTR5, Homo sapiens, UniProt P35346) | antagonist, FLIPR |  | 10 µM | 30.5% |
| Cc1ccc(CNC(=O)c2ccccc2)cc1C | Replicase polyprotein 1ab, papain-like protease (rep, Porcine epidemic diarrhea virus, UniProt P0C6Y4) | enzyme activity, inhibitor, FRET |  | 10 µM | < 0% |

| SMILES | target | assay | system | setting | inhibition |
| --- | --- | --- | --- | --- | --- |
| OO | Histone acetyltransferase p300, BHC core (EP300, Homo sapiens, UniProt Q09472) | enzyme activity |  | 1 mM, with: p300 BHC, with DTT | 12 ± 5% |
| CNc1cc(Oc2cc(C(=O)Nc3cc(N4CCN(C)CC4)cc(C(F)(F)F)c3)ccc2C)ncn1 | Serine/threonine-protein kinase 3 (STK3, Homo sapiens, UniProt Q13188) | kinase activity |  | 1 µM | -12.9% |
| COc1ccc(C(=O)NCc2cc(Br)c(OC)c(OC)c2)cc1OC | rep main protease | enzyme activity, inhibitor, FRET |  | 10 µM | < 0% |
| CCN1CCN(Cc2ccc(NC(=O)c3ccc(C)c(Oc4ccnc5[nH]ccc45)c3)cc2C(F)(F)F)CC1 | Serine/threonine-protein kinase Nek9 (NEK9, Homo sapiens, UniProt Q8TD19) |  | A-375 | concentration not given | -14% |
| Cc1cc(-c2ccnc3[nH]cc(F)c23)cc(F)c1[C@@]1(O)[C@H](C)CN(C(=O)CN)C[C@@H]1C | STK16 | ATP probe binding, KiNativ, item: Lys2 site | HEK293T cell lysate | 1 µM | 56.8% |
| COc1cc(-c2cc(C(C)=O)n3ccccc23)cc(OC)c1Cn1ccnc1 | SMARCA2 isoform B |  |  | 1 µM | -3.85% |
| CCCCCCCC(=O)N[C@H](CN1CCCC1)[C@H](O)c1ccc2c(c1)OCCO2 | N-terminal Xaa-Pro-Lys N-methyltransferase 1 (Homo sapiens, UniProt Q9BV86) | SAHH-coupled fluorescence |  | 100 µM | no inhibition |
| COc1ccc(C(=O)Nc2ccc(N3CCCN(c4ccccn4)CC3)cc2)cc1 | Alpha-synuclein, fibrils (SNCA, Homo sapiens, UniProt P37840) | radioligand binding |  | 1 µM, 50 nM protein, with: [3H]BF2846 4 nM | inhibited |
| COc1ccc(C(=O)NCc2ccc(C)c(C)c2)cc1 | rep main protease | enzyme activity, inhibitor, FRET |  | 10 µM | < 0% |
| COc1cc(C(=O)NS(=O)(=O)c2ccccc2C)ccc1Cc1cn(C)c2ccc(NC(=O)OC3CCCC3)cc12 | LRRC8C E6A part LRRC8A IL1 chimera | ion current, inhibitor, whole-cell patch clamp | HCT LRRC8-/- cells | 0.1 µM, +100 mV | 9.14% and 16.3% and 22.2% and 29.7% |
| C/C=C1/CN2CC[C@]34C(=C(C(=O)OC)[C@H]1C[C@H]23)Nc1ccc(Br)cc14 | ADRA1D |  |  | 10 µM | < 50% |
| COc1cc(CNC(=O)c2cccs2)cc(Br)c1OC | rep main protease | enzyme activity, inhibitor, FRET |  | 10 µM | < 0% |
| O=C(Nc1cccc2c(=O)cc(-c3nnn[nH]3)oc12)c1ccc(OCCCCc2ccccc2)cc1 | LRRC8C E6A part LRRC8A IL1 chimera | ion current, inhibitor, whole-cell patch clamp | HCT116 LRRC8 knockout, transfected | 10 µM, at -100 mV | 79.7% |
| C#Cc1cc(-c2cc(Nc3nc(N[C@@H](C)c4ccc(F)cn4)ncc3Cl)n[nH]2)ccc1C=O | Proto-oncogene tyrosine-protein kinase ROS (ROS1, Homo sapiens, UniProt P08922) | enzyme activity, inhibitor |  | 0.2 µM | 1.58% |
| CCN1/C(=C/C(C)=O)Sc2ccc(F)cc21 | Alpha-2B adrenergic receptor (ADRA2B, Homo sapiens, UniProt P18089) |  |  | 10 µM | 91.6% |
| COc1cc(CNC(=O)c2cc3ccccc3n2C)cc(Br)c1OC | rep main protease | enzyme activity, inhibitor, FRET |  | 10 µM | < 0% |
| OCCCN1CC[C@@H]2C[C@H]1c1cc(-c3ccc(C(F)(F)F)cc3)ccc12 | ADRA1D | radioligand binding, PDSP competition binding |  | 10 µM | < 50% |
